Experimental data of several laboratories.
Lines come from different studies, so protocols differ. ± marks the error that the study gave.
Spike glycoprotein: Spike glycoprotein (Severe acute respiratory syndrome coronavirus 2, UniProt P0DTC2)

Under “remaining fibrinogen Aα chain”, `CNC(=O)[C@@H](NC(=O)[C@H](CC(C)C)[C@H](O)C(=O)NO)C(C)(C)C` is recorded as 0.32 (human fibrinogen; SDS-PAGE; Daboia russelii; concentration not given, unit not given, together with: TN venom; relative to: untreated fibrinogen).
For `HLMSFPQSA`, “frequency of responding donors” read 17 (AIM; peptide, CD8+ T cells from PBMC, human donors; HLA-A*02:01 restricted, unit not given; relative to: positive over tested donors).
`Nc1ncnc2c([C@@H]3N[C@H](CO)[C@@H](O)[C@H]3O)c[nH]c12` gave an inhibition of 1.8% (Zaire ebolavirus; viral replication, inhibitor; human Macrophage; 0.8 µM).
With `COc1cccc(-c2ccccc2NC(=O)C2CCN(Cc3ccccc3F)CC2)c1` the AC50 was 12.6 µM (SARS-CoV-2; cytopathic effect, cell-based CPE; USA_WA1/2020; round 1, 5-point dilution).
With `VTKNSKVQIGEYTFE` the responding donors was 8% (human CD4 T cells; AIM; peptide).
The EC50 of `Cn1c(Cn2ccc(C(F)(F)F)c(Oc3cc(Cl)cc(C#N)c3)c2=O)n[nH]c1=O` is reported as 0.003 ± 0.0001 µM (HIV-1; viral replication, single-round infection; RT mutant E138K/M184V).
`AEVQIDRL` — result for “frequency of responding donors”: 20% (AIM; peptide, CD8+ T cells from PBMC, human donors; relative to: positive over tested donors).
`CC[C@H](C)[C@H](NC(=O)[C@H](CC(C)C)NC(=O)[C@H](Cc1c[nH]c2ccccc12)NC(=O)[C@H](CCC(N)=O)NC(=O)[C@@H](NC(=O)[C@H](Cc1ccccc1)NC(=O)[C@H](C)NC(=O)[C@H](CCCCNC(=O)COCCOCCNC(=O)COCCOCCNC(=O)CC[C@H](NC(=O)CCCCCCCCCCCCCCCCCCC(=O)O)C(=O)O)NC(=O)[C@H](CCC(N)=O)NC(=O)[C@H](C)NC(=O)[C@@H](NC(=O)[C@H](CCCCN)NC(=O)[C@H](CC(=O)O)NC(=O)[C@H](CC(C)C)NC(=O)C(C)(C)NC(=O)[C@@H](NC(=O)[C@H](CO)NC(=O)[C@H](Cc1ccc(O)cc1)NC(=O)[C@H](CC(=O)O)NC(=O)[C@H](CO)NC(=O)[C@@H](NC(=O)[C@H](Cc1ccccc1)NC(=O)[C@@H](NC(=O)CNC(=O)[C@H](CCC(=O)O)NC(=O)C(C)(C)NC(=O)[C@@H](N)Cc1ccc(O)cc1)[C@@H](C)O)[C@@H](C)O)[C@@H](C)CC)[C@@H](C)CC)C(C)C)C(=O)N[C@@H](C)C(=O)NCC(=O)NCC(=O)N1CCC[C@H]1C(=O)N[C@@H](CO)C(=O)N[C@@H](CO)C(=O)NCC(=O)N[C@@H](C)C(=O)N1CCC[C@H]1C(=O)N1CCC[C@H]1C(=O)N1CCC[C@H]1C(=O)N[C@@H](CO)C(N)=O` — result for “subjects with adverse event”: 0% (item: treatment-emergent upper respiratory tract infection; healthy subjects; 4.5 mg, multiple ascending dose).
For `Cn1cnc(Cn2c(=O)[nH]/c(=N\c3cc4cn(C)nc4cc3Cl)n(Cc3cc(F)c(F)cc3F)c2=O)n1`, “patients with adverse event” read 0% (human, normal renal function; oral, 375 mg, hypertriglyceridaemia TEAE, Mild severity).
For `TLADAGFIK`, “frequency of responding donors” read 25 (AIM; peptide, CD8+ T cells from PBMC, human donors; HLA-A*03:01 restricted, unit not given; relative to: positive over tested donors).
`Cc1ccc(C(C)Nc2nc(N3CCNCC3)nc3ccccc23)cc1` (stereo not shown) gave a maximal response of 89.4% (SARS-CoV-2; cytopathic effect, cell-based CPE; USA_WA1/2020; round 2, 5-point dilution).
`O=C1Nc2ccc(Cl)cc2[C@@](C#CC2CC2)(C(F)(F)F)O1` has an EC50 of 0.112 ± 0.0139 µM (HIV-1; viral replication, single-round infection; RT mutant K101P).
The efficacy of `CC(C)(Nc1nc(N2CCNCC2)nc2ccccc12)c1ccccc1` is reported as 23.5% (SARS-CoV-2; cytopathic effect; USA_WA1/2020; retest, 8-point, duplicates).
For `CC1(C)[C@@H](O)CC[C@]2(C)[C@H]3C(=O)C=C4[C@@H]5C[C@@](C)(C(=O)O)CC[C@]5(C)CC[C@@]4(C)[C@]3(C)CC[C@@H]12`, the Kd was 38.7 µM (Spike glycoprotein; binding, biolayer interferometry).
The efficacy of `COc1ccc(Cl)cc1NC(=O)CSc1nc2ccccc2nc1N1CCCCC1` is reported as 101% (SARS-CoV-2; cytopathic effect; USA_WA1/2020; round 1, 5-point).
With `O=c1cc(-c2ccc(O)cc2)oc2cc(O)c(O)c(O)c12` the Kd was 52.3 µM (Spike glycoprotein; binding, biolayer interferometry).
